Results gathered from unrelated publications.
Every numbered part comes from another study and shows a few of its results, in no order.
UniProt Q9UEE5, sequence (whole entry, looked up): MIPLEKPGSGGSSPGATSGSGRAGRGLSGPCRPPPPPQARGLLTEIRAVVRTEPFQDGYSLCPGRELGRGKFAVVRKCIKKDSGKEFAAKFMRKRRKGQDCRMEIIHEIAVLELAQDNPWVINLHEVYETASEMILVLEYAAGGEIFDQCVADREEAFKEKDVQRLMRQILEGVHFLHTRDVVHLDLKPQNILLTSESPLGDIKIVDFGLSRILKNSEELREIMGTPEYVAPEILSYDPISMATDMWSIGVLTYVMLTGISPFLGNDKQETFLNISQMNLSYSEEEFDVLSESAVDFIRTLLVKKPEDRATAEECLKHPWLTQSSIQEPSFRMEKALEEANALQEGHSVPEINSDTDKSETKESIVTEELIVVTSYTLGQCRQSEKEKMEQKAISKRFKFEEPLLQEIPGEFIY

Study 1
Compound: CN(C)c1ncnc(-c2ccc3nc(Nc4cc(CN5CCN(C(=O)CC(F)(F)F)CC5)ccn4)[nH]c3c2)c1Cl
MAP3K19: Mitogen-activated protein kinase kinase kinase 19 (MAP3K19, Homo sapiens, UniProt Q56UN5)
UniProt Q56UN5, sequence (whole entry, looked up): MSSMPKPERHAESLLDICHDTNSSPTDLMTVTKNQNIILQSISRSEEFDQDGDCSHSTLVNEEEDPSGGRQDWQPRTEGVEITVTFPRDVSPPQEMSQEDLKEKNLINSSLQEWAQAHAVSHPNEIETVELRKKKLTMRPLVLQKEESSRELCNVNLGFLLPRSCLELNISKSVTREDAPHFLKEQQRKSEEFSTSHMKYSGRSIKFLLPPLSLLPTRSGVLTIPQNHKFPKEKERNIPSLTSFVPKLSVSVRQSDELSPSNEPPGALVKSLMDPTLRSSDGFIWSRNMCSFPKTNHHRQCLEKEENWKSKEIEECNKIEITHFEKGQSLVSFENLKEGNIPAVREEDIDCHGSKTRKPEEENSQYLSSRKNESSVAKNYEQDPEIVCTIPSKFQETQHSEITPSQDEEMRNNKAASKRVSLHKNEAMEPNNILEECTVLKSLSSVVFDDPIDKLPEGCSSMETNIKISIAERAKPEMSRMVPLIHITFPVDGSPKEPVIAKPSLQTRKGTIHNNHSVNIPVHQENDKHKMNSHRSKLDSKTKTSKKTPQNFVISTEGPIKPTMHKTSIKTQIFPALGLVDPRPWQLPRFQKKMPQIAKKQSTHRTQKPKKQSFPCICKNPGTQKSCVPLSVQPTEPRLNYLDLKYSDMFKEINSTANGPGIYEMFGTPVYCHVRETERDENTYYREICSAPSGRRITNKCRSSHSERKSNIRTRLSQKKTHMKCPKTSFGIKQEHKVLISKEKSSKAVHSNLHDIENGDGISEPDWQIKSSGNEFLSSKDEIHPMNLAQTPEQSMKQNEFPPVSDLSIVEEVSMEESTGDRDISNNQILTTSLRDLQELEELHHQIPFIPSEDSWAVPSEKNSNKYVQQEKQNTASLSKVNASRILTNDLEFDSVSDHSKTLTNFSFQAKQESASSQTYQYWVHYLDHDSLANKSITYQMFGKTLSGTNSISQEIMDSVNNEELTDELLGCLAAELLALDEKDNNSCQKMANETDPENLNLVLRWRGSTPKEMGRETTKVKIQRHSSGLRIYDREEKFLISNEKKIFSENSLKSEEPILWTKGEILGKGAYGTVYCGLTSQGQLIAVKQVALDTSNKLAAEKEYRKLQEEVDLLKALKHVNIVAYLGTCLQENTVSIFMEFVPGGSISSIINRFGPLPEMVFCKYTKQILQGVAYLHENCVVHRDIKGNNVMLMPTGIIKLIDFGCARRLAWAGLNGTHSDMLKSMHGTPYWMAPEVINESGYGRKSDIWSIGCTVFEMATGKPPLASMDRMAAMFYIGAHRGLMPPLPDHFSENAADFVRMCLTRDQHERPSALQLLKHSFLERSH
MAP2K5: Dual specificity mitogen-activated protein kinase kinase 5 (MAP2K5, Homo sapiens, UniProt Q13163)
UniProt Q13163, sequence (whole entry, looked up): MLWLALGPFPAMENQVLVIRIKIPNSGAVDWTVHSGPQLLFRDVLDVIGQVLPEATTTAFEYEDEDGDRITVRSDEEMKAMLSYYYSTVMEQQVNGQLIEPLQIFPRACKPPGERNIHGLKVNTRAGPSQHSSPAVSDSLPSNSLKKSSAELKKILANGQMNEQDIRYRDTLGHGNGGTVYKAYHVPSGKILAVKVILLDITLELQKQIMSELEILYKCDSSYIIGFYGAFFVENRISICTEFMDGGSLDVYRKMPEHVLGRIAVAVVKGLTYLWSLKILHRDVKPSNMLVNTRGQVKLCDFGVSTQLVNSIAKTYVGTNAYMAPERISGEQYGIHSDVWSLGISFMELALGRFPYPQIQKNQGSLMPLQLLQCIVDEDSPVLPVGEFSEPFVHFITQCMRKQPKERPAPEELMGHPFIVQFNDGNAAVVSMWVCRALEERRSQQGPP
IKBKE: Inhibitor of nuclear factor kappa-B kinase subunit epsilon (IKBKE, Homo sapiens, UniProt Q14164)
UniProt Q14164, sequence (whole entry, looked up): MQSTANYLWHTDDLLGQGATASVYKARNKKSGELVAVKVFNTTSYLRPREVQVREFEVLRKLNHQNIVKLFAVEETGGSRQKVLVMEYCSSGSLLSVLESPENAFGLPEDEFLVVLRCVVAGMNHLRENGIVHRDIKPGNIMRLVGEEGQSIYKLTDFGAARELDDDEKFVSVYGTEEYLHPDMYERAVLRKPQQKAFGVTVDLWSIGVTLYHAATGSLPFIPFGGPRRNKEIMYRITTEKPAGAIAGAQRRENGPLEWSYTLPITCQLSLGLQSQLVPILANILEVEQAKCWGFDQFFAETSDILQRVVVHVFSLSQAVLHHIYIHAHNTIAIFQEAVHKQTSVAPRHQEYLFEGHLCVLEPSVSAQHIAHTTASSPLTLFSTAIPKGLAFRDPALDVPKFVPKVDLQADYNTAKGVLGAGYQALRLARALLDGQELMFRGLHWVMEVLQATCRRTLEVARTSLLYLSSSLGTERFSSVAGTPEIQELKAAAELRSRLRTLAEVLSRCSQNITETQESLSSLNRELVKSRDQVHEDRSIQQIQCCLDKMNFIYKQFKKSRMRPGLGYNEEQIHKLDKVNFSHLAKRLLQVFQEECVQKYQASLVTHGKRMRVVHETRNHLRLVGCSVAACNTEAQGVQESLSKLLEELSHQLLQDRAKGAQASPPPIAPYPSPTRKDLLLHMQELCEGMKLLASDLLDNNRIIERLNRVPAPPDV
For Serine/threonine-protein kinase 17A (STK17A, Homo sapiens, UniProt Q9UEE5); target engagement in cells, BRET: EC50 read 5.1 µM.
Receptor-type tyrosine-protein kinase FLT3 (FLT3, Homo sapiens, UniProt P36888); target engagement, NanoBRET; live cells — EC50: greater than 50 µM.
For MAP3K19; target engagement in cells, BRET: EC50 read greater than 50 µM.
The EC50 was greater than 50 µM (MAP2K5; target engagement in cells, BRET).
MAP3K19; target engagement, NanoBRET; live cells — EC50: greater than 50 µM.
IKBKE; target engagement, NanoBRET — EC50: greater than 50 µM.
For MAP2K5; target engagement, NanoBRET; live cells: EC50 read greater than 50 µM.
IKBKE; target engagement in cells, BRET — EC50: greater than 50 µM.
IKBKE; target engagement, NanoBRET; live cells — EC50: greater than 50 µM.

Study 2
Target: LIM domain kinase 1 (LIMK1, Homo sapiens, UniProt P53667)
UniProt P53667, sequence (whole entry, looked up): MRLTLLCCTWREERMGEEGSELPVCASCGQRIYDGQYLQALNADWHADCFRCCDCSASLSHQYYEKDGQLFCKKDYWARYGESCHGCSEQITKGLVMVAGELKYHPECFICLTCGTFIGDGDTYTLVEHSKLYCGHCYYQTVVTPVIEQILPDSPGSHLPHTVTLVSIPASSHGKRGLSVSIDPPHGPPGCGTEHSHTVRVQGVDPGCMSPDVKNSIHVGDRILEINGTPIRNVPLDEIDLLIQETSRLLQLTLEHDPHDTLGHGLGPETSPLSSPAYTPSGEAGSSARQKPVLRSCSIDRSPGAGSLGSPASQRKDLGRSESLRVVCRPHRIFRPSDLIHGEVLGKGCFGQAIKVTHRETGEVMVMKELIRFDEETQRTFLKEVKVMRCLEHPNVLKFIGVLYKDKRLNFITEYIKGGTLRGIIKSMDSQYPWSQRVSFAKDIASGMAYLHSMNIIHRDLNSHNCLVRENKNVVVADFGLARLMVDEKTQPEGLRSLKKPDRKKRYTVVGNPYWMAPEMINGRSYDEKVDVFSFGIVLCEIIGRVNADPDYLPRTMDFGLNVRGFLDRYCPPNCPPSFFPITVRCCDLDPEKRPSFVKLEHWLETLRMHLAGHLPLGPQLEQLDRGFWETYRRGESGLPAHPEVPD
Effect on: enzyme activity
Action: inhibitor
Tested at: 0.5 µM
Baseline: control
`Nc1cccc(-c2cc3c(Oc4cccc(O)c4)ncnc3[nH]2)c1` has a remaining activity of 22.1%.
With `Cc1nc2cc3nc(-c4cccs4)cnc3cc2n1C` the remaining activity was 112%.
For `Cn1nc2c3c(cccc31)C(=O)c1ccccc1-2`, the remaining activity was 97.1%.
`O=c1cc(-c2cccc3c2Sc2ccccc2S3)oc(N2CCOCC2)c1` has a remaining activity of 103%.
`c1ccc(-c2cnc(Nc3ccc(OCCN4CCCC4)cc3)s2)cc1` gave a remaining activity of 66.8%.
`O=C1C(Cl)=C(N2C(=O)CCC2=O)C(=O)c2ccccc21` has a remaining activity of 92.5%.
The remaining activity of `O=C(Nc1cccc(Nc2nccc(Nc3cccc(C(F)(F)F)c3)n2)c1)C1CC1` is reported as 45.1%.
`O=C(NC(NC(=S)Nc1ccc(F)c([N+](=O)[O-])c1)C(Cl)(Cl)Cl)C(c1ccccc1)c1ccccc1` (stereo not shown) has a remaining activity of 94.5%.
`N#Cc1c(NC(=O)c2cccc3ccccc23)sc2c1CCCC2` gave a remaining activity of 102%.
`Cc1cn(-c2cc(NC(=O)c3ccc(C)c(Nc4nccc(-c5cccnc5)n4)c3)cc(C(F)(F)F)c2)cn1` gave a remaining activity of 94%.
`CCOc1nc(NC(=O)Cc2cc(OC)ccc2OC)cc(N)c1C#N` has a remaining activity of 103%.
`Ic1cccc(CSc2nnc(-c3ccncc3)o2)c1` has a remaining activity of 85.8%.
With `CCN(CC)CCNC(=O)c1c(C)[nH]c(/C=C2\C(=O)Nc3ccc(Cl)cc32)c1C` the remaining activity was 98.4%.
For `COc1cc2c(cc1OC)-c1[nH]nc(Nc3cccc(F)c3)c1C2`, the remaining activity was 23.3%.
With `COc1cc2ncnc(Nc3cccc(Cl)c3)c2cc1OC` the remaining activity was 72.4%.
The remaining activity of `c1ccc(-c2[nH]ncc2-c2ccnc3ccccc23)nc1` is reported as 103%.
`CCN(CC)CCNC(=O)c1c(C)[nH]c(/C=C2\C(=O)Nc3ccc(F)cc32)c1C` has a remaining activity of 94.3%.
`Cc1cc2ncc(-c3ccccc3)nc2cc1C` gave a remaining activity of 102%.
With `CCN(CC)C(=O)c1ccc(Nc2nc(OCC3CCCCC3)c3[nH]cnc3n2)cc1` the remaining activity was 35.1%.
`CN(C)C[C@H]1CCn2c(c(C3=C(c4cn(C)c5ccccc45)C(=O)NC3=O)c3ccccc32)C1` has a remaining activity of 89.4%.
`O=C1c2ccccc2-c2n[nH]c3cccc1c23` gave a remaining activity of 78.1%.
With `COc1cc2ncnc(Nc3ccc(O)c(Br)c3)c2cc1OC` the remaining activity was 85.1%.
`N#C/C(=C\c1ccc(O)c(O)c1)C(=O)NCc1ccccc1` has a remaining activity of 97%.

Study 3
Target: Calcium/calmodulin-dependent protein kinase type II subunit alpha (CAMK2A, Homo sapiens, UniProt Q9UQM7)
UniProt Q9UQM7, sequence (whole entry, looked up): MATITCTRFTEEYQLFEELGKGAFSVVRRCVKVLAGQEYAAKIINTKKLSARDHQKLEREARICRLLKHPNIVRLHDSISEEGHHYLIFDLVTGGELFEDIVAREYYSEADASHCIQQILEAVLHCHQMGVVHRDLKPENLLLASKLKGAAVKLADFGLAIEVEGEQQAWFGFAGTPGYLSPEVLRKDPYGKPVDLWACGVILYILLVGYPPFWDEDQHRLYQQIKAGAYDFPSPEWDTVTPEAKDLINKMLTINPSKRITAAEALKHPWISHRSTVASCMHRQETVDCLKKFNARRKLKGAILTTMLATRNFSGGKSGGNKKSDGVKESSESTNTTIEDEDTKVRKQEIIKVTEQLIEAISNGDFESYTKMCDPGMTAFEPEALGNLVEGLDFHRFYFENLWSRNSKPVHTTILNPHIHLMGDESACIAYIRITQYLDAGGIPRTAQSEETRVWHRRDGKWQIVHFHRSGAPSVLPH
Effect on: enzyme activity
Action: inhibitor
Tested at: 10 µM
`COc1cc2c(c(OC)c1OC)-c1c(cc3c(c1OC)OCO3)[C@H](OC(=O)c1ccccc1)[C@@](C)(O)[C@@H](C)C2` gave an inhibition of -8%.
The inhibition of `Oc1ccc(CC2NCCc3cc(O)c(O)cc32)cc1` (stereo not shown) is reported as 25%.
The inhibition of `NC(N)=NCCCC(N)C(=O)O` (racemic) is reported as 39%.
For `COc1cc(O)c2c(=O)cc(-c3ccccc3)oc2c1`, the inhibition was -10%.
`O=C(O)c1ccccc1Nc1cccc(C(F)(F)F)c1` has an inhibition of 4%.
The inhibition of `CCCc1nc2c(C)cc(-c3nc4ccccc4n3C)cc2n1Cc1ccc(-c2ccccc2C(=O)O)cc1` is reported as 4%.
For `NC(N)=O`, the inhibition was -7%.
For `CC(=O)O[C@H]1Cc2cc3c(cc2[C@H]2N(C)Cc4c(ccc5c4OCO5)[C@@]12C)OCO3`, the inhibition was 4%.
For `OCc1ccc(CO)o1`, the inhibition was -29%.
`COC(=O)[C@H]1O[C@@H](O[C@H]2CC[C@]3(C)[C@H]4CC=C5[C@@H]6CC(C)(C)CC[C@]6(C(=O)O)CC[C@@]5(C)[C@]4(C)CC[C@H]3[C@]2(C)C=O)[C@H](O)[C@@H](O)[C@@H]1O` has an inhibition of -3%.

Study 4
Cell line: HaCaT
Tested at: 100 µM
Time: 36 h
`CC(C)[C@@H]1CC[C@@H](C)C[C@H]1O` gave a viability of 93.6%.
With `CCCNC(=O)NS(=O)(=O)c1ccc(Cl)cc1` the viability was 96.5%.
With `COC(=O)[C@@H]1CC2=CC(=O)CC[C@]2(C)[C@@]23O[C@@H]2C[C@@]2(C)[C@@H](CC[C@@]24CCC(=O)O4)[C@H]13` the viability was 99.8%.
`CC(C)(Oc1ccc(Cl)cc1)C(=O)O` gave a viability of 96%.
`CCOC(=O)C(C)(C)Oc1ccc(Cl)cc1` gave a viability of 65.8%.
For `NC(CO)(CO)CO`, the viability was 92.9%.
The viability of `CC1=NN(c2ccc(C)c(C)c2)C(=O)/C1=N\Nc1cccc(-c2cccc(C(=O)O)c2)c1O` is reported as 38.3%.
The viability of `C[C@]12CCC(=O)C=C1CC[C@@H]1[C@@H]2C(=O)C[C@@]2(C)[C@H]1CC[C@]2(O)C(=O)CO` is reported as 99.4%.
The viability of `CS(=O)(=O)n1cc2c(n1)CN([C@H]1CO[C@H](c3cc(F)ccc3F)[C@@H](N)C1)C2` is reported as 87.4%.
With `C[C@]12C=CC(=O)N[C@@H]1CC[C@@H]1[C@@H]2CC[C@]2(C)[C@@H](C(=O)Nc3cc(C(F)(F)F)ccc3C(F)(F)F)CC[C@@H]12` the viability was 73.5%.
With `Cc1c(OCC(F)(F)F)ccnc1C[S+]([O-])c1nc2ccccc2[nH]1` (stereo not shown) the viability was 87.6%.
`CC1(C)C[C@@H]1C(=O)N/C(=C\CCCCSC[C@H](N)C(=O)O)C(=O)O` gave a viability of 95.3%.
With `N[C@@H](Cc1ccc(O)c(O)c1)C(=O)O` the viability was 112%.
With `CC1=CC(=O)c2ccccc2C1=O` the viability was 7.14%.
With `CO/N=C1\CN(c2nc3c(cc2F)c(=O)c(C(=O)O)cn3C2CC2)CC1CN` (stereo not shown) the viability was 55.4%.
`COc1cc(NS(=O)(=O)c2ccc(N)cc2)ncn1` gave a viability of 79.7%.

Some of these lines once more (study 4):
`COc1cc(NS(=O)(=O)c2ccc(N)cc2)ncn1` gave a viability of 79.7%.
`CC(C)[C@@H]1CC[C@@H](C)C[C@H]1O` gave a viability of 93.6%.
The viability of `C[C@]12CCC(=O)C=C1CC[C@@H]1[C@@H]2C(=O)C[C@@]2(C)[C@H]1CC[C@]2(O)C(=O)CO` is reported as 99.4%.
With `CO/N=C1\CN(c2nc3c(cc2F)c(=O)c(C(=O)O)cn3C2CC2)CC1CN` (stereo not shown) the viability was 55.4%.
With `N[C@@H](Cc1ccc(O)c(O)c1)C(=O)O` the viability was 112%.
With `CCCNC(=O)NS(=O)(=O)c1ccc(Cl)cc1` the viability was 96.5%.
